Results collected from several papers.
Numbered parts are unrelated; each lists some results of a single study. Substitutions count along the parent as printed.

Series 1
Target: PABPC1L2, full length, GST fusion (mouse, UniProt A0ABA7IW68)
Method: RNAcompete
Molecule type: RNA
Sample: in vitro
Concentration: 20 nM
Setting: 7-mer, probes averaged, single round
Baseline: mean of 7-mers
Reading: higher = stronger binding
Target sequence (chain): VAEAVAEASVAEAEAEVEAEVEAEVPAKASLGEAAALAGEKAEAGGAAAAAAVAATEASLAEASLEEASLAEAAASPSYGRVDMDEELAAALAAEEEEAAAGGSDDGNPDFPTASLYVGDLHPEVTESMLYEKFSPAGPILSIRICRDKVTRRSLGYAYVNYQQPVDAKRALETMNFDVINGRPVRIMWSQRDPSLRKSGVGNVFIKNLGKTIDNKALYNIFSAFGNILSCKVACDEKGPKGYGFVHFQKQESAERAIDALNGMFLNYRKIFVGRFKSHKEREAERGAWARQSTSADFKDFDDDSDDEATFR
Strand	7-mer Z-score
AUAUUAU	-0.197
GGUUUGG	-0.28
GCAAGGA	0.273
GACAGCA	0.00979
CCAGCCC	-0.407
UGACUCU	-0.24
GAGUACU	-0.269
GUAACGG	-0.0989
UCUGAAU	-0.204
UUGUGUC	-0.541
AUCGCGA	-0.151
UAGCCCU	-0.246
CUGCACC	-0.277
AAGAUGG	0.447
CACAGCA	0.00979
GUGACGG	0.137
UAGGUUG	-0.0464
UGUAGCA	-0.188
UUCGUGA	-0.237
UUCCGAG	-0.137
GUGACAU	0.0297
UCUGUGC	-0.374
UUGCCUA	-0.311
GAAAUGC	0.276
UAUCCUA	-0.228

Series 2
Target: RNA binding protein fox-1 homolog 2, RRM domain, GST-SBP tag (RBFOX2, Homo sapiens, UniProt O43251-10, residues 100-194)
Method: RNA Bind-n-Seq
Molecule type: RNA
Sample: in vitro
Concentration: 365 nM
Setting: natural RNA segment, single round, ends assumed
Baseline: no-protein control
Reading: higher = stronger binding
Constant ends, left off below: GGGAGUUCUACAGUCCGACGAUC … UGGAAUUCUCGGGUGCCAA
Target sequence (chain): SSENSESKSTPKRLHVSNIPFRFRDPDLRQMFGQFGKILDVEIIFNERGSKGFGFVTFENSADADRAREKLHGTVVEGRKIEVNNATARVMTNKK
Strand	RBNS enrichment (R)
CUUAACUGGAAAGUGACCGUCCACUGCCCCAUGGAGCCCAUCUGGACACAGCACAGCCCCAAAACCGUUAGCAGCUGGCUCUGUUUCCAAGCCUGGGGAGGGGUUCCUCA	0.56
AUUAUAGAAGGAAAUUAUACUUUAAGAAAAUGUUCACAAAAAAAAAAAAAAAAAAAGGACUAUUACAGAUCCCAAUACUUGGAUUUGGUGACCUUGUCUUUCUUUCUUUU	0.889
UCUUUUAAGUAAGUUCCAAGAUCCAUGAAUUAACAGAGGCAUAUAUUUAAAAUGAAAUUUAAUGAGCACUUAGUGACUUCAUUUGUUCAAGAAUAUUUGAUUUCCUAUUG	0.269
UCUCACUAAGCUUCGUGUAUAAAUGGAAUACAUUAUUUUUCAAACAAACGAAUAAAUGGCUUACAUGCCUGGUCUGGGACCUGUUCUUGUGCCGAGGGGUAAUGUGUACU	0.996
UCAUAUAGUCAAUGUAAAAAUACACUAAUGAGUAUUUGGUAAAUCCCAGUAGGCUUUUACCAUUAGCAUAAUUUUGUGUUGUACAAUUAAGUUACAAUUACAUCUCUAAU	0.324
GCCCAGUCCCAGUACUGCCAUCUUUGCAUCCACCCCUGCAAGUCUCCAGAGGGCUUCCUGCCACAGAAGUGCUGCCAAGCAGAAGAACCUGUGCCAACUGUGGAGUGGGG	0.466
CCCUAAUUUUUUUUGUUUUAAUGUUUAAUUUUCAUUCUAUUUUAAAUCAGACAUUAAAAAUAUUCAAAAACAAACAAGAGUCAGGCUUCAACUUGAAGUAUAGAUAUGAC	0.556
CUCACUAGGUUGGCGGUACAUGUGGCCUUGUGCCCACCCCCAUCCCCAUUGUAGUCAGGUUCCCAGGAUGGAGACAGUGCUCCUGGGGUGGCCACUCAGUGAGGAGGCUC	0.355
CCAAGGAUAACUGUAUGCUAUCCUUUCCCUAUCGGUCCCACUGUGCUGUGUUCAGCACAUUUUAGGUAACAGGACACAACUUGAAACUUUUCAGGAGAGCCUAUUGCCCU	0.26
GUGGCCCAGCAGCAUGGCCUGCAUCUGGAAGGACACAGGUUGCCAGAGCCCCUGGCACAACUCUAGCAUAUCUGUGAGCAGCUGUUCCCUGUAGCCACUGCCCAGCACCU	0.733
AGGGACGGACAUUGCAGUUACACCACGAUUCCUUCCUCUUCACUGGCUCGAGGUAAACCCUUUUCAAGGAAAAACAACUCUAGGAUUUCUUUUUUCUGUGUACGUAGACC	0.542
AUGAGUUUAAUCAUUGUUCAUUUAUUGCCUUUAGGGCUGAGGGAAAGGGAAGGUUUGUUUUUUUUUCUCCCCAUUUUCCCCCAUUCUGUCUUUCUUUUGGUGACUUACAC	0.523

Series 3
Target: UBE2I UBC core domain (UniProt P63279)
Method: yeast two-hybrid
Sample: yeast
Setting: mostly zero background
Baseline: not given
Reading: higher = stronger interaction
B1: TRIM24 RING domain (UniProt O15164); chain EAARLNLLDTCAVCHQNIQSRAPKLLPCLHSFCQRCLPAPQRYLMLPAPMLGSAETPPPVPAPGSPVSGSSPFATQVGVIRCPVCSQECAERHII
B2: RNF38 RING domain (UniProt Q9H0F5); chain PNNHQSEQTLCVVCMCDFESRQLLRVLPCNHEFHAKCVDKWLKANRTCPICRADASEVHRDS
B3: TRAF5 RING domain (UniProt O00463); chain FVERLEERYKCAFCHSVLHNPHQTGCGHRFCQHCILSLRELNTVPICPVDKEVIKSQEVFK
B4: TRIM13 RING domain (UniProt O60858); chain MELLEEDLTCPICCSLFDDPRVLPCSHNFCKKCLEGILEGSVRNSLWRPAPFKCPTCRKETSATGINS
B5: RNF111 RING domain (UniProt Q6ZNA4); chain EGTEEDTEEKCTICLSILEEGEDVRRLPCMHLFHQVCVDQWLITNKKCPICRVDIEAQLPSE
B6: NEURL1 RING domain (UniProt O76050); chain VTPGLGQWSDECTICYEHAVDTVIYTCGHMCLCYACGLRLKKALHACCPICRRPIKDIIKT
B7: TRIM5 RING domain (UniProt Q9C035); chain LREVKLSPEGQKVDHCARHGEKLLLFCQEDGKVICWLCERSQEHRGHHTFLTEEVAREYQVKL
B8: VPS41 RING domain (UniProt P49754); chain KGVLVDEENICESCLSPILPSDAAKPFSVVVFHCRHMFHKECLPMPSMNSAAQFCNICSAKNRGPGSAI
Sequence	lacZ reporter activity
B1 (TRIM24 RING domain)	0
B2 (RNF38 RING domain)	0
B3 (TRAF5 RING domain)	0
B4 (TRIM13 RING domain)	0
DHGAVGQEMCCPICCSEYVKGEVATELPCHHYFHKPCVSIWLQKSGTCPVCRCMFPPPL (PJA1 RING domain (UniProt Q8NG27))	0
GAAPGPEAAECLVCSELALLVLFSPCQHRTVCEECARRMKKCIRCQVVVSKKLRPD (MIB2 RING domain (UniProt Q96AX9))	0
ASLPTSEEDLCPICYAHPISAVFQPCGHKSCKACINQHLMNNKDCFFCKTTIVSVEDWE (RNF123 RING domain (UniProt Q5XPI4))	0
MPIRALCTICSDFFDHSRDVAAIHCGHTFHLQCLIQWFETAPSRTCPQCRIQVGKRTIIN (TRAIP RING domain (UniProt Q9BWF2))	0
B5 (RNF111 RING domain)	0
B6 (NEURL1 RING domain)	0
B7 (TRIM5 RING domain)	0
B8 (VPS41 RING domain)	0

Series 4
Target: CCNB3, cyclin fold, Cln2 fusion (human)
Method: yeast growth competition, sequencing
Sample: yeast
Setting: weak parent motif
Baseline: not given
Reading: higher = stronger binding
Parent: CDKN1B docking peptide (human); PSACRNLFGPVDH
Change	normalised enrichment score
PSLCRNLFGPVDH [A3L]	0.694
PSQCRNLFGPVDH [A3Q]	0.432
PQACRNLFGPVDH [S2Q]	0.297
QSACRNLFGPVDH [P1Q]	0.424
PSACENLFGPVDH [R5E]	0.406
ESACRNLFGPVDH [P1E]	0.189
PSACRNLFGPVDN [H13N]	0.237
PSACRNLFHPVDH [G9H]	0.414
PSACRNMFGPVDH [L7M]	0.228
PSACRNLNGPVDH [F8N]	0.167
RSACRNLFGPVDH [P1R]	0.229
PSACRNLFGPLDH [V11L]	0.276
PLACRNLFGPVDH [S2L]	0.515
PSACRNAFGPVDH [L7A]	0.0329
PSACRNLHGPVDH [F8H]	0.322
PSASRNLFGPVDH [C4S]	0.408
PSANRNLFGPVDH [C4N]	0.526
PSACRGLFGPVDH [N6G]	0.163
PSACRNLKGPVDH [F8K]	0.118
PSACRNLFGPEDH [V11E]	0.289
PWACRNLFGPVDH [S2W]	0.0633
PSACRNCFGPVDH [L7C]	-0.241
PSACQNLFGPVDH [R5Q]	0.237
PSACRNLFGPVNH [D12N]	0.538

For quick reference, copied from above (series 3):
Sequence	lacZ reporter activity
B7 (TRIM5 RING domain)	0
DHGAVGQEMCCPICCSEYVKGEVATELPCHHYFHKPCVSIWLQKSGTCPVCRCMFPPPL (PJA1 RING domain (UniProt Q8NG27))	0
B8 (VPS41 RING domain)	0
MPIRALCTICSDFFDHSRDVAAIHCGHTFHLQCLIQWFETAPSRTCPQCRIQVGKRTIIN (TRAIP RING domain (UniProt Q9BWF2))	0
B5 (RNF111 RING domain)	0
B4 (TRIM13 RING domain)	0
B3 (TRAF5 RING domain)	0
B6 (NEURL1 RING domain)	0
